Results pooled from the literature.
Every numbered part comes from another study and shows a few of its results, in no order.

Sample 1 — technique: universal PBM; form: double-stranded DNA, one strand shown; medium: in vitro; tested at: not given; direction: higher = stronger binding
Target: Sal-like protein 4, full length isoform B (SALL4, Homo sapiens, UniProt Q9UJQ4-2, residues 1-616)
Notes: 8-mer, flanks averaged, mean of replicates
Residues (chain): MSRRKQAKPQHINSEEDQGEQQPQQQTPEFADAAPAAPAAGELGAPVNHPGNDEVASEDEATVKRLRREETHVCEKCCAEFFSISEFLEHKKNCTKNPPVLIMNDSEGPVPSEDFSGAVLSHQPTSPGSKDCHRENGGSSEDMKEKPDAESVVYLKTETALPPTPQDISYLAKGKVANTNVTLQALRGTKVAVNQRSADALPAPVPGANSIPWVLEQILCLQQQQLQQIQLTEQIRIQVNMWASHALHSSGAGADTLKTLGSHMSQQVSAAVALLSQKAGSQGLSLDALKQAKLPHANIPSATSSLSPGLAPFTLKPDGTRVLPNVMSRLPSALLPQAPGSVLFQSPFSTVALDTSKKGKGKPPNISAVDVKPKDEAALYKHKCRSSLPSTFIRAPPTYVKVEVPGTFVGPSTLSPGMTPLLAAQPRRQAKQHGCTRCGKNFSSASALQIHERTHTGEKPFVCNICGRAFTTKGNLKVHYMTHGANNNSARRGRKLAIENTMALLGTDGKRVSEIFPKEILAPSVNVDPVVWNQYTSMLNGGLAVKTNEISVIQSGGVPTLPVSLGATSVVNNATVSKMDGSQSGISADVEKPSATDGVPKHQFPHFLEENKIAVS
Strand	E-score
AGGTTTCA	-0.0243
GCCCAGAA	-0.172
ATCTGAAG	0.0686

Sample 2 — technique: competition protein-binding microarray; form: double-stranded DNA, one strand shown; medium: in vitro; tested at: 2 µM; with: Cbf1 competitor, 0.05 µM; direction: higher = stronger binding
Target: Phosphate system positive regulatory protein PHO4, full length, GST-tagged (PHO4, Saccharomyces cerevisiae, UniProt P07270, residues 1-312)
Notes: whole 60-bp probe, lowest competitor level
Target sequence (chain): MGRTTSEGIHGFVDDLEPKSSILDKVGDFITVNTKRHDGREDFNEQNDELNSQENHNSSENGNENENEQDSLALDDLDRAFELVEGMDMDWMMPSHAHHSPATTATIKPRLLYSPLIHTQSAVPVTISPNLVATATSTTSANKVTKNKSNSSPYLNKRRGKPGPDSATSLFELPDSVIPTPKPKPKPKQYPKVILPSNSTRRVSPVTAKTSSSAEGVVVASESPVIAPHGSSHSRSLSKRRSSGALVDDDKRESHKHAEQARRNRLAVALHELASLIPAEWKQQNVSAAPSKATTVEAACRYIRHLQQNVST
Strand	fluorescence intensity [a.u.]
CGTTGGGCTGAAGACGACATGATAATTAAGAGAGCCGTCTTGATTCGCTTGACGCTGCTG	3460
CTTCTGTAAATTTGTCCAGTGGGTGGACGCGCCCCGGTCTTGATTCGCTTGACGCTGCTG	3650
AAGAAGTACGACCGACACGTTAGTATGCCTTTGTTGGTCTTGATTCGCTTGACGCTGCTG	6580
AAATTACTAAGTTGGCCTGTGGGTGACGCCGTATGAGTCTTGATTCGCTTGACGCTGCTG	4320

Sample 3 — technique: protein binding microarray; form: double-stranded DNA, one strand shown; medium: in vitro; tested at: not given; reference: not given; direction: higher = stronger binding
Target: Histone acetyltransferase KAT6A, winged helix 1, GST fusion (KAT6A, Homo sapiens, UniProt Q92794, residues 1-85)
Notes: 8-mer, flanks averaged, mean of 2 arrays, mostly near background
Residues (chain): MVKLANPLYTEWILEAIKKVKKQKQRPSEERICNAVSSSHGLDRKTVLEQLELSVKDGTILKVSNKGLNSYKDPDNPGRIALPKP
Strand	E-score
ATCGTTCA	-0.184
GACCACTC	-0.0353
AAGGTATG	-0.107
CCGCCACA	0.201

Other studies, line by line
Molecule	target	test	system	setting	how to read	quantity	result
PhoQ, residues 284 288 289 292 302 303 SLKLQV	PhoP, residues 12 14 15 18 19 LHSVW (Escherichia coli, UniProt P23836)	Sort-seq, item: YFP reporter	E. coli	PhoQ-PhoP variant library, with: 10 µM Mg2+	reference: high Mg2+ state, higher = stronger signaling	fold induction	3.04

Some of these lines once more (sample 1):
Strand	E-score
ATCTGAAG	0.0686
